Assay results pooled from the literature.
A part holds a random share of what one study measured.

Sample 1
Target: Sal-like protein 4, full length isoform A (SALL4, Homo sapiens, UniProt Q9UJQ4, residues 1-1053)
Sequence of UniProt Q9UJQ4 (whole entry, looked up): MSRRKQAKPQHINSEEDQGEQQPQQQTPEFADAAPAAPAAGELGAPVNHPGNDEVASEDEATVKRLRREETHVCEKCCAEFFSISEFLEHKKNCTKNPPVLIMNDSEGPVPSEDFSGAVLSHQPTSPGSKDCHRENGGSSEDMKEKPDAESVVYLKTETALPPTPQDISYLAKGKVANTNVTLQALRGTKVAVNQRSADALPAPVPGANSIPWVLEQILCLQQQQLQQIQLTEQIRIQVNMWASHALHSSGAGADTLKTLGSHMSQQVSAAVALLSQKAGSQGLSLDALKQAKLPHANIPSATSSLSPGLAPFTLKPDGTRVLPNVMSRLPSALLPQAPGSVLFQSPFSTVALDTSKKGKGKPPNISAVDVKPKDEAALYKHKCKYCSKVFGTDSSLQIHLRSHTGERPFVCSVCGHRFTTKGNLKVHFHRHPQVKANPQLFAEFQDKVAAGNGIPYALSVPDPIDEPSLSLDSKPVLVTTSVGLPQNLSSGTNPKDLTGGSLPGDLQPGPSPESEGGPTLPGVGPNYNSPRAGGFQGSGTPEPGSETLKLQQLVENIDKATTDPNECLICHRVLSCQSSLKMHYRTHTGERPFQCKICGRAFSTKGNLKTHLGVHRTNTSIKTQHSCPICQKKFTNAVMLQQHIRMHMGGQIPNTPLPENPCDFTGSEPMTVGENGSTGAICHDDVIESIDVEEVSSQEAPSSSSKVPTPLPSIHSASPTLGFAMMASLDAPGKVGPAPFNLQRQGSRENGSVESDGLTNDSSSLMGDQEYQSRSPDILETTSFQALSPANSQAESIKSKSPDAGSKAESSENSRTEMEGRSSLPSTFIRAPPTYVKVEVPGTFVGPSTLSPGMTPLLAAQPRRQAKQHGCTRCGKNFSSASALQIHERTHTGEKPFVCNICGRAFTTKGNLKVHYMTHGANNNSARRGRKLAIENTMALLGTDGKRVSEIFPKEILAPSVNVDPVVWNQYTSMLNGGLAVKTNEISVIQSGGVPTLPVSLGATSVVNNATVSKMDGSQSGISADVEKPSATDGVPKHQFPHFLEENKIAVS
Technique: universal PBM
Molecule type: double-stranded DNA, one strand shown
Matrix: in vitro
Concentration: 600 nM
Notes: 8-mer, flanks averaged, mean of replicates
Reading: higher = stronger binding
| Oligonucleotide | E-score |
| --- | --- |
| GACTGGCA | -0.298 |
| CATCAACG | 0.0243 |
| ATTCTTGC | 0.0494 |
| CACCTGCG | -0.291 |
| GAAAGTAC | 0.145 |
| AGGACCCT | -0.233 |
| CCTAGCTA | -0.0168 |
| AAGGCCAA | -0.119 |
| CGGCTTAA | -0.0574 |
| ACCGTGGC | -0.269 |
| ACTTTCGG | -0.00502 |
| GCCTCAGA | -0.128 |
| AGATACTC | 0.0512 |
| CCCAGGAA | -0.0728 |
| GCTCGCAC | -0.292 |
| CGCCGACA | -0.266 |
| CAGGGGAA | -0.226 |
| ATGCGCCA | -0.00186 |
| CAGTTCAA | 0.0505 |
| AATCTTTA | 0.269 |
| CCGTGTGA | -0.182 |
| CGAATCCC | -0.245 |
| CATGGAGA | 0.00729 |

Sample 2
Target: Histone acetyltransferase KAT6A, both winged helices, GST fusion (KAT6A, Homo sapiens, UniProt Q92794, residues 1-181)
Technique: protein binding microarray
Molecule type: double-stranded DNA, one strand shown
Matrix: in vitro
Concentration: not given
Notes: 8-mer, flanks averaged, mean of 2 arrays, mostly near background
Baseline: not given
Reading: higher = stronger binding
Residues (chain): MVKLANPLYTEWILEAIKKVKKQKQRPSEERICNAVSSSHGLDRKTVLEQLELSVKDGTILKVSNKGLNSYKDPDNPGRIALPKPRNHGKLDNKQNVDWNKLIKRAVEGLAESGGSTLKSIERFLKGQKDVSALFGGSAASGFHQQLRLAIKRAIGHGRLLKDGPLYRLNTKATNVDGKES
| Oligonucleotide | E-score |
| --- | --- |
| CCCGTGAC | 0.236 |
| CCACGAAC | -0.0124 |
| GCGGCTGA | 0.243 |
| CACCAATG | -0.071 |
| AATAACAC | 0.102 |
| ATAGGTAA | -0.17 |
| AGTTAGAC | -0.0354 |
| AGTAGCGC | 0.29 |
| ATTTTCAG | -0.123 |
| ACCCGTTC | 0.152 |
| ACACTCGG | 0.124 |
| CCACCCTC | -0.194 |
| CACCTTCG | -0.00966 |
| GTTCTGTA | -0.1 |
| TGACTCCA | -0.322 |
| ACTCGTTG | -0.158 |
| TAGCAGGA | -0.208 |
| CACGTGGG | -0.267 |
| AGATCCGG | 0.025 |
| GTCCAATA | 0.119 |
| CCTGGCCA | -0.0805 |
| GGCGGGAC | 0.261 |
| CACAGTGG | -0.0627 |
| GATTCAGC | 0.0957 |
| CTGTTCTA | -0.0843 |

Sample 3
Target: RNA binding protein fox-1 homolog 2, RRM domain, GST-SBP tag (RBFOX2, Homo sapiens, UniProt O43251-10, residues 100-194)
Technique: RNA Bind-n-Seq
Molecule type: RNA
Matrix: in vitro
Concentration: 365 nM
Notes: natural RNA segment, single round, ends assumed
Baseline: no-protein control
Reading: higher = stronger binding
Residues (chain): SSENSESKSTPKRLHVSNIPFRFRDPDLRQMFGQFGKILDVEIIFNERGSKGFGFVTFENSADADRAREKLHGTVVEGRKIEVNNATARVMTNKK
| Oligonucleotide | RBNS enrichment (R) |
| --- | --- |
| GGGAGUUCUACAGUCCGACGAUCAGCUUUCUGGCUUUUCUGAGGGCAAGGGCAUGGUGCCCACCCCUCAAGUGUAAGGAACUGCGUUCCGCCCCUCAGGCCCCCAUGGGGGCAGGGAUCGGCUUGGAAAUCAAUGGAAUUCUCGGGUGCCAA | 0.237 |
| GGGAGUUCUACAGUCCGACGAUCGUACUAGAACCAGAGCAAUCCACUGAUUCAUAUUGGAUCCCAAGUAUACCUCCUGCUGGUAUCAGGUGUCAGAAGGGACAUUUGUUAGAUGCCUUACUUGACCUUCCUAGUGGAAUUCUCGGGUGCCAA | 0.333 |
| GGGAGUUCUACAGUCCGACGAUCAGAGUACACCGUUCACUAUUGUAGAGUAACCCCUGUGACUCAAUAUUACCAUAGUGCGAUGUCGUUUUGUGCUAUUUUGAACAAUUAAAAGACUUUUUUUGAAAUAACCAUGGAAUUCUCGGGUGCCAA | 0.376 |
| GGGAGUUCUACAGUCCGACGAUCGUAGUUUGGGGACACUCUGUAUUCCUGUUUUCAUUCUAACAAAGAGGACAGAGCUAUUUUGCUAUGAUAAUCUCUGUGGUUUAUGAUAAUAAUCUGAACAGCAAACAGUGUGGAAUUCUCGGGUGCCAA | 0.323 |
| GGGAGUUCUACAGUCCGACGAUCUCACUACAGAGAUGCUACUGAAGAGAGACGGUAGUACAGCUCUCUUGCAGUACUGCCUGCCGUUGGUAAGCAGUGGCAUCCGAAGGCAGGAACCCUGAUGAGCCCUCACGUGGAAUUCUCGGGUGCCAA | 0.166 |
| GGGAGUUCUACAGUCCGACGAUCAAACUCCAUUCUAGAUGUUAGGAAAGUUGUAACAUGCACACUCACUCAGCCGAUCAGGAAUCAUUGGCAGAUGCACAUGCCCUGGAACUUUCCCUUAGUUUUGUGAACUCUGGAAUUCUCGGGUGCCAA | 1.27 |
| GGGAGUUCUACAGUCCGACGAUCAGCAAGAAGCCUGGUAAAACUGUGACUUUUCCCCAAACGUCAAUCUUUAUUAGAAAGCAUUUUCUAGGUGUGUUUAGUGUACAAAGAGACUUUAUAACCCUUACUGGACAUGGAAUUCUCGGGUGCCAA | 0.378 |
| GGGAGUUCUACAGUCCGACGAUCCAUAUACACUUGGAUCUCUGAGAGCAGAAACCCAACUCUCACUAGACAUACCUGUGAUGGAACACACAAACAGACACGCACCAUGGGGGGUGGCCCACAAAGCCUUACACUGGAAUUCUCGGGUGCCAA | 0.43 |
| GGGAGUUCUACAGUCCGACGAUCUGCUUGCCUGGCCCUGUCCUGGACCCAGCUUUGCUAGGUCUCCUUGGAAACCAGGCCUGGGCCUCAAAAUGGAGAUGGAUCCCAGGUCUUGUGGGACCCUGGGAUGUUUGUGGAAUUCUCGGGUGCCAA | 0.405 |
| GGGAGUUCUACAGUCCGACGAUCUGCCUAGUAUAGUGCUGAGCACAUAGUAGGCGUUUAAUAAAUGCUUGUUGAAGUAUUGUGUGGAUUAUUUGUGGUGGUAUCUACAGAAAUUUUUAAGCUGUUUUCAAGAAUGGAAUUCUCGGGUGCCAA | 0.559 |
| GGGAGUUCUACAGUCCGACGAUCUAAAAGCCUUCAACCAUGAUUUUCAUCAUUGGAAAUAGAAUUGAAUGGCCACCCUGUGUUGUGGGAACUGAGAAGGGCAAUAUAAACCUGAGAGGUUCCUUUGUGUGGUGUGGAAUUCUCGGGUGCCAA | 0.994 |
| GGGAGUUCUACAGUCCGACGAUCAUUGCAAAUAGUGAUGUAGUUUUAACCAGUAUGGAUUAGUUCAGGGAUGAACUGCUCCCUCUAGCCUUACUGGCUCUGAUCCACAGGGUUUUGUUUUGUUUUGUUUUGUUUGGAAUUCUCGGGUGCCAA | 0.718 |

Sample 4
Target: RING finger protein unkempt homolog, zinc fingers 1-6, GST-SBP tag (UNK, Homo sapiens, UniProt Q9C0B0, residues 30-357)
Sequence of UniProt Q9C0B0 (30-357, looked up): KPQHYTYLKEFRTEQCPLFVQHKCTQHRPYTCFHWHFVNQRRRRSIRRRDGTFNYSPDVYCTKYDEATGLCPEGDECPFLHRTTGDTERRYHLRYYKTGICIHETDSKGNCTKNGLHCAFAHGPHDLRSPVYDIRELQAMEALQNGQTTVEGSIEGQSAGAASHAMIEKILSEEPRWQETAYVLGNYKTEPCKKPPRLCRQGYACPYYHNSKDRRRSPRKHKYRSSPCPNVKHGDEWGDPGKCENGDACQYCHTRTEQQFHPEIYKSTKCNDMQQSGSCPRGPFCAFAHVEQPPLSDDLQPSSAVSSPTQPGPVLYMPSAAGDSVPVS
Technique: RNA Bind-n-Seq
Molecule type: RNA
Matrix: in vitro
Concentration: not given
Notes: RNA with constant flanks, human-mouse chimeric sites, ends assumed
Baseline: input RNA pool
Reading: higher = stronger binding
| Oligonucleotide | bound/input enrichment [ratio] |
| --- | --- |
| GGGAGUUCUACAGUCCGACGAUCAUGGUUGUGUCUCUUGAGAUCUAAAAACAAGAUGACUUUUCCUGGCACAUAUUCCAAAGCAAAGACUUUGUUGCCUGCUGCUUAUUGUCUAAUUUACAGGGAUAUUUAAUUUUGUAAGGUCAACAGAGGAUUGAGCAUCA | 0.293 |
| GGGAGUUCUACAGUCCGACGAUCAAUAGAGGAUCCACCUCCCAAAGUGCUGGGAGUAAAGGUGUGGCCACCACACCUAACUUGAUGGAUAUAUAUUUUUUCUCUUUUAUGUCUUCCUGUUCGUCCAGGGAAGAAAGAUUUGUUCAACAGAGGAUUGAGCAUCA | 1.29 |
| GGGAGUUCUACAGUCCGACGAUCAAAUCGUGUGUGUCCAAUAUUGAAAGUGCUUUAUCUACACUCCAAUAUGUAAGCAGUAUAGUAGUUUCUUUAGAGAAUAGGUCAGCCAUUGUAAAGUAUAAUGCAAGCUUAGUCACUCCACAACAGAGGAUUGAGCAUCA | 13 |
| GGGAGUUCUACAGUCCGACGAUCUCAUUUUUCUCUUUUCUUUCUUUCCUUUAGGAAAAGCAGAUUAGACUGGUUGUAAGAAAAACAGAAGCCAUGUUUCGAAGACCUGUAUUACAGGUAUUUCGUCAGUUUGUAAGACAUGAGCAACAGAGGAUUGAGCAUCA | 0.442 |
| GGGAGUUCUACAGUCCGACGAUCGGAUCUUUGGGACUGUUUUACUUAAUUGGUCAUUGAUAGCUUAACAAACAUGGAGAUAAGAUUAGAAAUCUUGACAUCAACAGGUAUCAAGCAGAAAAAACCAUGGCCACGUGUCUCCUGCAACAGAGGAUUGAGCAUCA | 0.181 |
| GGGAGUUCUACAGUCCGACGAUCACAGUUAUAUUGUUGAGUUUCAUUUUCAUAUAUUCUUGUAGUGUCUGCUUGCCUGUGACUUCUGGUAAAAUAAGACUAGCCUUUGAAUUAGCAUGCUCAUGGUAUUUAACAUUUUCUAAACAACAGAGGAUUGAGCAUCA | 18.1 |
| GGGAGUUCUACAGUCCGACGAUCCAACAGAGUCUAGGAUGGGUUCAUUACAUGAUUCAUGAGCCAGAACCGCAUAUUCUUCUCUUUAGACGACCUCUUCCAAAAGAUCAACAAAAAUGAAGUGCAGCUGGGGAUCGUCAAUCUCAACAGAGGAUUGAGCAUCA | 0.309 |
| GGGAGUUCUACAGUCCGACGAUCUAAAUUAGGGCUGCCGUUUUCUGUUUCUCCCUGGGCUGCGGAAAGCCAGAAGAUUUUAUCUAGCUUAUACAAGGCUGCUGGUGUUCCCUCUUUUUUUCCCUCUCUCUUUUUUUUCCAGCACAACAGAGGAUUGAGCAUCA | 1.14 |
| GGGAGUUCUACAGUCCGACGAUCUCAGGAACUCAGACAAAUAUGAAUGUAAAUGAAGUCAUUAGCAACAGAGCAAUUGAAAUGUUAGGAGGUGAACUUGGCAGCAAGAAGCCUGUGCACCCCAAUGAUCAUGUUAACAAAAGCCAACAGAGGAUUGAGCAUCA | 0.442 |
| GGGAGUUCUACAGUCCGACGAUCAUUGUUGAAGCGAAUCCACUUUUAGAAGCAUUUGGAAAUGCGAAGACUGUUCGCAACAAUAAUAGCAGUCGAUUUGGAAAAUUUGUAGAAAUUCAUUUCAAUGAAAAGAGUUCGGUUGUUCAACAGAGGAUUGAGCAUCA | 0.346 |
| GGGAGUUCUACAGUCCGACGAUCUGUGAACUGUCUCUUGAGAUCUAAAAAAAACAUGAUUUUUCCUGGCACAUAUUUCAAAGCAAAGACUUUGUUGCCUGCUGCUUAUUGUCUAAUUUACAGGGAUAUUUAAUUUUGUCAGGUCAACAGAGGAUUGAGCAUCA | 0.135 |

Excerpt of the above (sample 2):
| Oligonucleotide | E-score |
| --- | --- |
| CCACGAAC | -0.0124 |
| CACCTTCG | -0.00966 |
| CCTGGCCA | -0.0805 |
| GTTCTGTA | -0.1 |
| ATTTTCAG | -0.123 |
| CACCAATG | -0.071 |
